Measurements pooled from the literature.
Each numbered part is a random draw from the data of one study; scales do not carry over between parts. Substitutions count along the parent as printed.
Chain of UniProt P37173 (whole entry, looked up): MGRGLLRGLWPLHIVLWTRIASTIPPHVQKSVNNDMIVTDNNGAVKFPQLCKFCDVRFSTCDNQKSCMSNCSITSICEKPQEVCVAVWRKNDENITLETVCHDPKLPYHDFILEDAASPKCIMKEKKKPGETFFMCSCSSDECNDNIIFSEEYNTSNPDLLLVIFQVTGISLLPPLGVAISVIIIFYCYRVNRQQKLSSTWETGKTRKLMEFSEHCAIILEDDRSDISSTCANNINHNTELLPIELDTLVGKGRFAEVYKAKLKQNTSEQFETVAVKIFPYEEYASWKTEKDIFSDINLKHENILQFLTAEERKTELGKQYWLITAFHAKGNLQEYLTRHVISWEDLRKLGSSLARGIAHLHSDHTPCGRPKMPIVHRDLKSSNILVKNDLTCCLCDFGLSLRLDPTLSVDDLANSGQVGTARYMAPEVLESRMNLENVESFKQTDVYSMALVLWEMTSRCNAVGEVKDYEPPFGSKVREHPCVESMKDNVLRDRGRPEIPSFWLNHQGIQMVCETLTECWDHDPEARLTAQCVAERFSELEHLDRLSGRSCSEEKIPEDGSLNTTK
Chain of UniProt Q14164 (whole entry, looked up): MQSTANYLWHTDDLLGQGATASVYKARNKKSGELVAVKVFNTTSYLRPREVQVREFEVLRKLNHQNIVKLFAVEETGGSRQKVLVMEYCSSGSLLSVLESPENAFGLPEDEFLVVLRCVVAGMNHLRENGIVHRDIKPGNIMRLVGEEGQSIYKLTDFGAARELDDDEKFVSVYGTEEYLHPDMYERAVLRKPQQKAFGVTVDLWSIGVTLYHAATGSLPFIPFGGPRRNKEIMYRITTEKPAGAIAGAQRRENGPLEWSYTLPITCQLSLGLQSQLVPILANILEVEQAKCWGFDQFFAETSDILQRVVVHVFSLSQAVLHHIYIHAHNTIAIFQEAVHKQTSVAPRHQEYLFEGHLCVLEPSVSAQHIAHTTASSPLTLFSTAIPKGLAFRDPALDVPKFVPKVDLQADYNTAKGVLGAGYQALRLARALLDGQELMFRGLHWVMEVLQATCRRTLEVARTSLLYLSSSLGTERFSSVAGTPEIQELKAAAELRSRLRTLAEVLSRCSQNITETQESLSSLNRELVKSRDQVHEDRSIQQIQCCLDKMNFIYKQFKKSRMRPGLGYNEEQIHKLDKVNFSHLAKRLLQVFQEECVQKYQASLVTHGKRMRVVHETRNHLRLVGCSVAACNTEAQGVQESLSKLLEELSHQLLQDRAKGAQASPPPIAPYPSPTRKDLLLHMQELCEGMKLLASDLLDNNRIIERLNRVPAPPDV
Chain of UniProt O95747 (whole entry, looked up): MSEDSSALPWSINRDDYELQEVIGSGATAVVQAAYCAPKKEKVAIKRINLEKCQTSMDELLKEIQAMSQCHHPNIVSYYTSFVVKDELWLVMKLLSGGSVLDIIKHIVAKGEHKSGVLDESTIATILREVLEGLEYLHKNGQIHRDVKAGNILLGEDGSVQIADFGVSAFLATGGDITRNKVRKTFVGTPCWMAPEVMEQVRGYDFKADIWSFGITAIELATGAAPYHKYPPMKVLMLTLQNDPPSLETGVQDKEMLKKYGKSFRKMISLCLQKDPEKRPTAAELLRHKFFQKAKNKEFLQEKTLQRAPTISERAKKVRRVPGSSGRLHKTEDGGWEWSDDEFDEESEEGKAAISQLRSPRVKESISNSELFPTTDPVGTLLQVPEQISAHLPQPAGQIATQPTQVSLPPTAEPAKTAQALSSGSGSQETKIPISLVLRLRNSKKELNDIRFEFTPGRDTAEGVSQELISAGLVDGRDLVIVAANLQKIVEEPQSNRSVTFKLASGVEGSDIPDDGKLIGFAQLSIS
Chain of UniProt P36897 (whole entry, looked up): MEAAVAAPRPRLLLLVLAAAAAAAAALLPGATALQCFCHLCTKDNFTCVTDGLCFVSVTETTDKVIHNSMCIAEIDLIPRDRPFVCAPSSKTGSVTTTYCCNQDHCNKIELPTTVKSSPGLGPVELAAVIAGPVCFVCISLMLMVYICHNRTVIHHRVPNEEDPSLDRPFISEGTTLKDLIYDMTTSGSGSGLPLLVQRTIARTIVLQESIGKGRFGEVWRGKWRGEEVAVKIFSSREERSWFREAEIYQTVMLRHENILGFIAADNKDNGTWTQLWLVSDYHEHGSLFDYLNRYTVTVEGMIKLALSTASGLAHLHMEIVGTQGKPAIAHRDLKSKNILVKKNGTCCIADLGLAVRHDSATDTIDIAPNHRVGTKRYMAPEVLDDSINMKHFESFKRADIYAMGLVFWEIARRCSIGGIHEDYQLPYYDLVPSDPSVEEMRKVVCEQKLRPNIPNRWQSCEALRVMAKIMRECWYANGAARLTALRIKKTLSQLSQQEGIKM
Chain of UniProt P07948 (whole entry, looked up): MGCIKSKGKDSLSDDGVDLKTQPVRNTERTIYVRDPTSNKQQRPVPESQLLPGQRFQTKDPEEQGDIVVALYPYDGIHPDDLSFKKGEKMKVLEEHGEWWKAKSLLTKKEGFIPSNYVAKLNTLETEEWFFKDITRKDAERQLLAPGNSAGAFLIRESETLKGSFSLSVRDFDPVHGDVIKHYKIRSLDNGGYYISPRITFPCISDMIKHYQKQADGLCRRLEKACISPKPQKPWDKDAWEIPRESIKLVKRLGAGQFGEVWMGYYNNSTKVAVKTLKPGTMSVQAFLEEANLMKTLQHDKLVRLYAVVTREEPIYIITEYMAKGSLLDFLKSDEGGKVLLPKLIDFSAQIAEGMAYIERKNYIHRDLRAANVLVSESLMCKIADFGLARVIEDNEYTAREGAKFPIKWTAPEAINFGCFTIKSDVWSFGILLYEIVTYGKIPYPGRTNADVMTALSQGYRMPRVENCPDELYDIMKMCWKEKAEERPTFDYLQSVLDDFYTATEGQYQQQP
Chain of UniProt Q15831 (whole entry, looked up): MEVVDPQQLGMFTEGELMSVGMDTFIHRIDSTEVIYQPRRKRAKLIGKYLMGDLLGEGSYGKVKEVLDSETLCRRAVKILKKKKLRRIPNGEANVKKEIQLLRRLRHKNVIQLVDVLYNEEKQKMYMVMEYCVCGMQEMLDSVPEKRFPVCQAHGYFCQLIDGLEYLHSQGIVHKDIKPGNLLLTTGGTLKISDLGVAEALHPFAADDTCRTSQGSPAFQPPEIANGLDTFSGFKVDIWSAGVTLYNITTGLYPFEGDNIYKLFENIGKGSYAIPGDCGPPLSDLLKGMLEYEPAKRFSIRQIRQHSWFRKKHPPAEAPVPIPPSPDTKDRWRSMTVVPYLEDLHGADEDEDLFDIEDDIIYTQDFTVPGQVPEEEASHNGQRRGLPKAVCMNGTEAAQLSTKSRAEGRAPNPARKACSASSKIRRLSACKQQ
Chain of UniProt Q00535 (whole entry, looked up): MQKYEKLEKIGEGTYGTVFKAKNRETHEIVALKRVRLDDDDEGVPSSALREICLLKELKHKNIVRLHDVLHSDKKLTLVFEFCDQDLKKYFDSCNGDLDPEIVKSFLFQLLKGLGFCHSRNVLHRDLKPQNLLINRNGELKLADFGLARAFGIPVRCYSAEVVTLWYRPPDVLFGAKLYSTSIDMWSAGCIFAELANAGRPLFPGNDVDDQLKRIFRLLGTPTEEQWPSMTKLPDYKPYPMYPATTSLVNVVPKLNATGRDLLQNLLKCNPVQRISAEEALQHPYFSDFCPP

Sample 1
Target: PABPC1L2, full length, GST fusion (mouse, UniProt A0ABA7IW68)
Technique: RNAcompete
Molecule type: RNA
Sample: in vitro
Concentration: 20 nM
Notes: 7-mer, probes averaged, single round
Baseline: mean of 7-mers
Direction: higher = stronger binding
Construct (chain): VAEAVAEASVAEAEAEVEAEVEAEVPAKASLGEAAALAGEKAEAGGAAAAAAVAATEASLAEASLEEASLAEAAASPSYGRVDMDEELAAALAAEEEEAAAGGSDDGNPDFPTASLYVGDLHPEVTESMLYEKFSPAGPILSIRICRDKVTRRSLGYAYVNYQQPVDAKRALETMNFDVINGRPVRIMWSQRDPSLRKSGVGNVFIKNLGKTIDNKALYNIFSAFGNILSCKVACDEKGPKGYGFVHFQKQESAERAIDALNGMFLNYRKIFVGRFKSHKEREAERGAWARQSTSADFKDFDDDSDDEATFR
Strand	7-mer Z-score
CGUAGAC	-0.191
CCGGAAU	-0.15
CUUAAUC	-0.333
CCUCACG	-0.273
CUAUUCG	-0.391
GUAGUAG	-0.208
UAAAACG	2.05
AAAGGGC	1.21

Sample 2
SMILES: O=c1cc(N2CCOCC2)oc2c(-c3ccccc3)cccc12
Read-out: enzyme activity
Action: inhibitor
Concentration: 0.5 µM
Baseline: control
target	remaining activity
GRK3 (Homo sapiens, UniProt P35626)	99.8%
PRKACA (Homo sapiens, UniProt P17612)	98.3%
IKBKE (Homo sapiens, UniProt Q14164)	100%
TGFBR1 (Homo sapiens, UniProt P36897)	97.5%
Tyrosine-protein kinase Lyn, isoform B (LYN, Homo sapiens, UniProt P07948)	99.4%
cGMP-dependent protein kinase 1, isoform beta (PRKG1, Homo sapiens, UniProt Q13976)	104%
CHEK2 (Homo sapiens, UniProt O96017)	93.7%
OXSR1 (Homo sapiens, UniProt O95747)	118%
STK39 (Homo sapiens, UniProt Q9UEW8)	78.4%
STK11 (Homo sapiens, UniProt Q15831)	101%
DAPK1 (Homo sapiens, UniProt P53355)	90.1%
STK10 (Homo sapiens, UniProt O94804)	97.1%
Protein kinase C beta type, isoform beta-I (PRKCB, Homo sapiens, UniProt P05771)	96%
PRKCA (Homo sapiens, UniProt P17252)	97.5%
CAMK2D (Homo sapiens, UniProt Q13557)	100%
TGFBR2 (Homo sapiens, UniProt P37173)	142%
MAPK9 (Homo sapiens, UniProt P45984)	102%
CAMKK2 (Homo sapiens, UniProt Q96RR4)	83.3%
Cyclin-dependent kinase 4, with cyclin D1 (CDK4, Homo sapiens, UniProt P11802)	111%
IKBKB (Homo sapiens, UniProt O14920)	100%
DAPK2 (Homo sapiens, UniProt Q9UIK4)	126%
NEK2 (Homo sapiens, UniProt P51955)	89.8%
MAP3K3 (Homo sapiens, UniProt Q99759)	93.4%
Cyclin-dependent kinase 5, with p25 (CDK5, Homo sapiens, UniProt Q00535)	86.7%

Sample 3
Target: Translocator protein (Tspo, Rattus norvegicus, UniProt P16257)
Chain of UniProt P16257 (whole entry, looked up): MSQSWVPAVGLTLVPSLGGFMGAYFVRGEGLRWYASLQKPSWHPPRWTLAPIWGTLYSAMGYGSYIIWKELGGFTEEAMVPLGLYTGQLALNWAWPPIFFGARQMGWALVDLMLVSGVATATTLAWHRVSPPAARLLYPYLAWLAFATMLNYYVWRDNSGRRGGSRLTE
Read-out: radioligand binding
Technique: radioligand displacement
Concentration: 10 µM
SMILES	inhibition [%]
COc1nc2ccc([C@@](O)(c3ccccc3)C3CCN(C(C)=O)CC3)cc2c(Cl)c1Cc1ccc(-n2cccn2)cc1	35.6
CNC(=O)Nc1ccc2c(c1)C1(CC2)OC(=O)N(CC(=O)N(Cc2ccc(F)cc2)[C@@H](C)C(F)(F)F)C1=O (single isomer, unassigned)	50.6
O=c1nc(-c2ccccn2)sc2ccccc12	9.91
COc1cccc(CNC(=O)c2nc3scc(COCc4ccc(C(=O)O)cc4)c3c(=O)[nH]2)c1	3.29
O=C(NCCCC1CCCCC1)c1ccc(CNC(=O)c2cnn(-c3ccccc3)c2C(F)(F)F)cc1	-16.5
N#CN1CC[C@H](C(=O)Nc2nc3c(s2)CN(C(=O)CN=[N+]=[N-])CC3)C1	21.9

Sample 4
Target: Ras GTPase-activating protein-binding protein 1, full length (G3BP1, Homo sapiens, UniProt Q13283)
Chain of UniProt Q13283 (whole entry, looked up): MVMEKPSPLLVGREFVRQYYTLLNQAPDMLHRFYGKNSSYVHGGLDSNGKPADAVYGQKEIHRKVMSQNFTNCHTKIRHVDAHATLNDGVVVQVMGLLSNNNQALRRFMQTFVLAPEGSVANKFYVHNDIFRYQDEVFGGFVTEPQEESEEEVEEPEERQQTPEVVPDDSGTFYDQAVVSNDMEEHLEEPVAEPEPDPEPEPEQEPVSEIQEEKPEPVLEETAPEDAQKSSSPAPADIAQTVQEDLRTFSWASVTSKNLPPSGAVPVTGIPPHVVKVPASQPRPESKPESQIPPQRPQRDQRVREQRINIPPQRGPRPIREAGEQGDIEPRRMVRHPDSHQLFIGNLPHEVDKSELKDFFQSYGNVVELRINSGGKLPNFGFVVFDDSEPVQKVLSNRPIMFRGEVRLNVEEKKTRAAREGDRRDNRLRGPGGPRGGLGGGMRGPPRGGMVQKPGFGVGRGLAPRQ
Technique: RNA Bind-n-Seq
Molecule type: RNA
Sample: in vitro
Concentration: 200 nM
Notes: whole 134-nt RNA, ends assumed
Added: 150 mM LiCl
Baseline: input library
Direction: higher = stronger binding
Each molecule: 7-deaza-guanosine replaces G
All sequences stand within: GGGAGUUCUACAGUCCGACGAUC … UGGAAUUCUCGGGUGUCAAGG
Strand	log2 enrichment
UCAAGUCCUGUGCUACACAUCGUAUGUACCGAAUCGGUGGAAAGGAAAAAAAGGAAAGUAUUAUGUUACGCCGUUCGGAUCUGCACUUCC	-0.862
UCAAGUCCUGUGCUACACAUCGUAUGUACCGAAUCGGGUUUUUGGGUGGGUGGGAAAGUAUUAUGUUACGCCGUUCGGAUCUGCACUUCC	-0.668
CUCAAGUCCUGUGCUACACAUCGUAUGUACCGAAUCGGAAAAAAAGGAGGAGGAAAGUAUUAUGUUACGCCGUUCGGAUCUGCACUUCCA	-0.328
CUCAAGUCCUGUGCUACACAUCGUAUGUACCGAAUCGGAAAGGUGGAAAAAGGAAAGUAUUAUGUUACGCCGUUCGGAUCUGCACUUCCA	0.0157
GUCCUGUGCUACACAUCGUAUGUACCGAAUCGGUUUUUGGUUUUUUUGGAAAAAAAGGAAAGUAUUAUGUUACGCCGUUCGGAUCUGCAC	-1.69
CCUCAAGUCCUGUGCUACACAUCGUAUGUACCGAAUCGGUGGAAAGGUUUGGAAAGUAUUAUGUUACGCCGUUCGGAUCUGCACUUCCAG	-0.509
CAAGUCCUGUGCUACACAUCGUAUGUACCGAAUCGGGCCCGGGGCCCGGCCCGGGGAAAGUAUUAUGUUACGCCGUUCGGAUCUGCACUU	-1.77
UCAAGUCCUGUGCUACACAUCGUAUGUACCGAAUCGGGAGGGAAAAAGGGAGGGAAAGUAUUAUGUUACGCCGUUCGGAUCUGCACUUCC	0.0156

Sample 5
Target: CCNE1, cyclin fold, Cln2 fusion (human)
Technique: yeast growth competition, sequencing
Sample: yeast
Notes: strong parent motif
Baseline: not given
Direction: higher = stronger binding
Starting sequence: GMNC docking peptide (human); KNAKRNLSSEFAN
Substitution	normalised enrichment score
S9R	1.97
N6T	0.0726
N2H	0.986
E10M	0.661
A3C	0.856
L7R	0.195
R5M	0.163
A12T	1.49

Excerpt of the above (sample 4):
Strand	log2 enrichment
UCAAGUCCUGUGCUACACAUCGUAUGUACCGAAUCGGGUUUUUGGGUGGGUGGGAAAGUAUUAUGUUACGCCGUUCGGAUCUGCACUUCC	-0.668
CUCAAGUCCUGUGCUACACAUCGUAUGUACCGAAUCGGAAAAAAAGGAGGAGGAAAGUAUUAUGUUACGCCGUUCGGAUCUGCACUUCCA	-0.328
CUCAAGUCCUGUGCUACACAUCGUAUGUACCGAAUCGGAAAGGUGGAAAAAGGAAAGUAUUAUGUUACGCCGUUCGGAUCUGCACUUCCA	0.0157
GUCCUGUGCUACACAUCGUAUGUACCGAAUCGGUUUUUGGUUUUUUUGGAAAAAAAGGAAAGUAUUAUGUUACGCCGUUCGGAUCUGCAC	-1.69
